Measured values pooled from the literature.
Every numbered part comes from another study and shows a few of its results, in no order.
Chain of UniProt P51451 (whole entry, looked up): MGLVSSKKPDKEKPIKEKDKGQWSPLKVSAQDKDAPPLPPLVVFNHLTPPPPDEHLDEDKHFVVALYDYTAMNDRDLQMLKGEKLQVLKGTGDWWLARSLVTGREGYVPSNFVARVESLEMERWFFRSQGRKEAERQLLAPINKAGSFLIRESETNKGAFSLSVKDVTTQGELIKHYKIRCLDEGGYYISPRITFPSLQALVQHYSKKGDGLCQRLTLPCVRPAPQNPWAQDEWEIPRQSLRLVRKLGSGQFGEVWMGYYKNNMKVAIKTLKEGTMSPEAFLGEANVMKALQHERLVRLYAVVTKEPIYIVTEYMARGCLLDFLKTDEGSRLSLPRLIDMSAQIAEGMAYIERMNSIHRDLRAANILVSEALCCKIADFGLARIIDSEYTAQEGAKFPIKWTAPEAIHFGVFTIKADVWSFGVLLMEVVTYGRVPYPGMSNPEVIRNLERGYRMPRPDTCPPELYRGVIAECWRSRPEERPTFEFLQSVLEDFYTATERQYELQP
Chain of UniProt P21709 (whole entry, looked up): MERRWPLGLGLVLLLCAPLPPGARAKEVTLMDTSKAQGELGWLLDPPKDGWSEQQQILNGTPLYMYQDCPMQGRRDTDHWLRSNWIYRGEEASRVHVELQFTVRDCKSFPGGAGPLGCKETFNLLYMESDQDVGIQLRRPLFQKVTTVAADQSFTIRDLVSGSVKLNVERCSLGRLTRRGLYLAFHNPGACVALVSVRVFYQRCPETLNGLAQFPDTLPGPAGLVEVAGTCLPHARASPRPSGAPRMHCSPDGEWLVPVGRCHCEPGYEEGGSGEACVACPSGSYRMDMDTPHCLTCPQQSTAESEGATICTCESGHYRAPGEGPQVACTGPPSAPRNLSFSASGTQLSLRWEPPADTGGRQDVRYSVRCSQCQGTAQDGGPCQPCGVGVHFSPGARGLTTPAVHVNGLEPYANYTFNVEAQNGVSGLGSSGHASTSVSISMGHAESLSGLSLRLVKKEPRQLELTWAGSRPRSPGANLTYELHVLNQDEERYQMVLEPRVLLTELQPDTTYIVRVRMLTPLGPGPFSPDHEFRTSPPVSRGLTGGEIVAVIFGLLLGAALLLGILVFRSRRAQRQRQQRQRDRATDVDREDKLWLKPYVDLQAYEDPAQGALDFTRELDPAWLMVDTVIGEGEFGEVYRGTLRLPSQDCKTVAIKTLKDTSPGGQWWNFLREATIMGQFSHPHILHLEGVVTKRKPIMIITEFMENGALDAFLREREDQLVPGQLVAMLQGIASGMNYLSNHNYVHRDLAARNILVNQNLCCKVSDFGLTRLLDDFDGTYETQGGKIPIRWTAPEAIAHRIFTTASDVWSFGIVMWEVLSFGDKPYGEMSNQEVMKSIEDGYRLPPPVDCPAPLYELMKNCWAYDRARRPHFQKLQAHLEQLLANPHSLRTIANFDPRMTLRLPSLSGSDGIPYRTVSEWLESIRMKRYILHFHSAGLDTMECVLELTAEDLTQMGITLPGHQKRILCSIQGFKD
Chain of UniProt Q8N568 (whole entry, looked up): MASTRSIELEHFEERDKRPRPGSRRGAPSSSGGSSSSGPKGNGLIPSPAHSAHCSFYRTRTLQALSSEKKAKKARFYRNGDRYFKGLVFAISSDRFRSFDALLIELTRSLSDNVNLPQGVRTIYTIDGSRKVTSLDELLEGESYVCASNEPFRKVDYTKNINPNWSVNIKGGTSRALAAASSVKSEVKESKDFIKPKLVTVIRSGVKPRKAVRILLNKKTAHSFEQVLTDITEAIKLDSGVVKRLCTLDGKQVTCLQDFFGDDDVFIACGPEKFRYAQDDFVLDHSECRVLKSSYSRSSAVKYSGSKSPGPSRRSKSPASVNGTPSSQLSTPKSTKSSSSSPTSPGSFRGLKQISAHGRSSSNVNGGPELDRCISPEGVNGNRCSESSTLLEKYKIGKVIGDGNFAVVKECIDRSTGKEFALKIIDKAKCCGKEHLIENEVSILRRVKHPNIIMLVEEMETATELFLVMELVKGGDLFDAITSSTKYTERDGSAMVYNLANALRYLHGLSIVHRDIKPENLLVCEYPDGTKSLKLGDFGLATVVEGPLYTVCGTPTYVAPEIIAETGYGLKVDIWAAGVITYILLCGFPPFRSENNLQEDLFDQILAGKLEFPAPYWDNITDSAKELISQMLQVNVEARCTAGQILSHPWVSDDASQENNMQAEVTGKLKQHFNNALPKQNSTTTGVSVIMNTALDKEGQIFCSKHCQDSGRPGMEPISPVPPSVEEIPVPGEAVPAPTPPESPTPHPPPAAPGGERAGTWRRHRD
Chain of UniProt Q00535 (whole entry, looked up): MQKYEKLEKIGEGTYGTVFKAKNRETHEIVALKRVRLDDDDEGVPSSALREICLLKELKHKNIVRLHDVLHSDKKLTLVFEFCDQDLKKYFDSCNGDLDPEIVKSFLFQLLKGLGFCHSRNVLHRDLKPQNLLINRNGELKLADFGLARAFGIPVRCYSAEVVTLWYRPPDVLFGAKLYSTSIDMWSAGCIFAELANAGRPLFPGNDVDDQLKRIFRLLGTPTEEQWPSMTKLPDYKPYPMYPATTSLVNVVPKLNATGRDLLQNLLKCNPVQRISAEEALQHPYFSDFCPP
Chain of UniProt P53355 (whole entry, looked up): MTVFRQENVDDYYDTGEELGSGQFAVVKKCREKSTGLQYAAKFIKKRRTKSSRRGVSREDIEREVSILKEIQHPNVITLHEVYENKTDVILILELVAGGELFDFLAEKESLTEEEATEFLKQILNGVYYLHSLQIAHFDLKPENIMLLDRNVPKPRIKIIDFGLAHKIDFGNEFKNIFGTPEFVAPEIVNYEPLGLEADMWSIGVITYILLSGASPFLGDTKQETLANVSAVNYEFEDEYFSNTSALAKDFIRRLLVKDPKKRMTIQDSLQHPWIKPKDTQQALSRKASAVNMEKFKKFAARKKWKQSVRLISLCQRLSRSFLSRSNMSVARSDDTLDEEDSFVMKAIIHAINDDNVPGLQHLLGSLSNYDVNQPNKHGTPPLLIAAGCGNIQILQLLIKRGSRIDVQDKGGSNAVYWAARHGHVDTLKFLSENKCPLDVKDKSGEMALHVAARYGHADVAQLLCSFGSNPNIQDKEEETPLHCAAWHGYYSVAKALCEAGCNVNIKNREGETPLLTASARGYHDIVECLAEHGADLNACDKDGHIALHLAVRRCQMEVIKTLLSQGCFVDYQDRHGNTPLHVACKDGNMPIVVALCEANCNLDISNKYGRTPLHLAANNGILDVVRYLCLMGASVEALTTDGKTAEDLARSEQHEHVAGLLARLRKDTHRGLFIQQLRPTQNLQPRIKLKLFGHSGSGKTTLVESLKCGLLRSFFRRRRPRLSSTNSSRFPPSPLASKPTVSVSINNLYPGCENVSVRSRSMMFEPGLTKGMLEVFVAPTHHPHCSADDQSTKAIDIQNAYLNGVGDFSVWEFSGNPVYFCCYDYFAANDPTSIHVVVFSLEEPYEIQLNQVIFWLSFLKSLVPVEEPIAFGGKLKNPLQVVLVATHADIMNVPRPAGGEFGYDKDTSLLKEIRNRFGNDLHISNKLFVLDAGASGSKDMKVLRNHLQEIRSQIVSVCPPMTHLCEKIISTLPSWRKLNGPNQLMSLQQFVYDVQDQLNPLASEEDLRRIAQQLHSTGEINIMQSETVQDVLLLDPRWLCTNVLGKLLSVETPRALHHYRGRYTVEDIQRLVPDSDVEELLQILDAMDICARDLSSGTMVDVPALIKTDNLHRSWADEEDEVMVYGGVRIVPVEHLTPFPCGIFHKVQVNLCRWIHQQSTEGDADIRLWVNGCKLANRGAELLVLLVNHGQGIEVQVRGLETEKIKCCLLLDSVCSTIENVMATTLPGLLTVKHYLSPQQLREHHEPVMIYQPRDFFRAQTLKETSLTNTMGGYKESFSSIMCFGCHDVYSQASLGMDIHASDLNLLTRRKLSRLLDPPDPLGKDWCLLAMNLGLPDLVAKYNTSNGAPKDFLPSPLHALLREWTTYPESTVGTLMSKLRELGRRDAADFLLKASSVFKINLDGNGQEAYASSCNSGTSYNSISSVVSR
Chain of UniProt P07333 (whole entry, looked up): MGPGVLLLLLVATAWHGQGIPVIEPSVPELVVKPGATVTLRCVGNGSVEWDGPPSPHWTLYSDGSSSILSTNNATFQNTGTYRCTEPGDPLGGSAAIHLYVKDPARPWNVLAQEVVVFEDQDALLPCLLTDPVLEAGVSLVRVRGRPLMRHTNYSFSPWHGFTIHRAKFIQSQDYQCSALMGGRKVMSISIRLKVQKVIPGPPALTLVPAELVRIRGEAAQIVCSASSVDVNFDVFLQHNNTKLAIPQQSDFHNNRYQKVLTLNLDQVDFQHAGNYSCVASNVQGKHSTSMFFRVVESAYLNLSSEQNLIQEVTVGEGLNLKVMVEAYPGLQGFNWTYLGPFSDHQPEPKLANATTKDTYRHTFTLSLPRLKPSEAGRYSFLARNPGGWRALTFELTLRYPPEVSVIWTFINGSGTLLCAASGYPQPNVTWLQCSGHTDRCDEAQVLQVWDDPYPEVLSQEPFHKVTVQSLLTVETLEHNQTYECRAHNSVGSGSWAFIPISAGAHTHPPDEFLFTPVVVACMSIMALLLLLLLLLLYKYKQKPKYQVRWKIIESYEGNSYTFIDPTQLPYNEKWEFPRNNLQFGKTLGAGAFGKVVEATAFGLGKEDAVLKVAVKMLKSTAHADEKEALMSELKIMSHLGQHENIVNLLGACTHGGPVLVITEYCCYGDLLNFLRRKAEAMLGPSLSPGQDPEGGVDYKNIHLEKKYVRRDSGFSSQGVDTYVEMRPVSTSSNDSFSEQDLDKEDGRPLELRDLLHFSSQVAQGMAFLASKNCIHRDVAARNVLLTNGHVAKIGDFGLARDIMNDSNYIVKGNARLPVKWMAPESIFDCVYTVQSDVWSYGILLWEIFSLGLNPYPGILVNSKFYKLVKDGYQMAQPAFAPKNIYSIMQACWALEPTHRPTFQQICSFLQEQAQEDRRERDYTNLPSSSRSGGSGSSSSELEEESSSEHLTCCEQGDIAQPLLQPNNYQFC

Study 1 — technique: competition protein-binding microarray; form: double-stranded DNA, one strand shown; sample: in vitro; tested at: 2 µM; with: Cbf1 competitor, 0.05 µM; direction: higher = stronger binding; shared flanks, not repeated: … GTCTTGATTCGCTTGACGCTGCTG
Target: Phosphate system positive regulatory protein PHO4, full length, GST-tagged (PHO4, Saccharomyces cerevisiae, UniProt P07270, residues 1-312)
Notes: whole 60-bp probe, lowest competitor level
Residues (chain): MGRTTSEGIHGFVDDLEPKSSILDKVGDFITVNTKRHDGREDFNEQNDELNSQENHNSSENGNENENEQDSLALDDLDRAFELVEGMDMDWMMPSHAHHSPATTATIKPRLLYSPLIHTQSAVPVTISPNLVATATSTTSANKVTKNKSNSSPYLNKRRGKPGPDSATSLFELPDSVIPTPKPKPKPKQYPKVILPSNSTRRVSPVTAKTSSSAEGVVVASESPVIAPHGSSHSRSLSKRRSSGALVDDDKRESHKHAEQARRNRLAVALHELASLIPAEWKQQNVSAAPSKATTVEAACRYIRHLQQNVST
Oligonucleotide	fluorescence intensity
AGCAAAGGAGACTTAAACGTGAGAGAGACCTGGCCT	7010 a.u.
TTACTTTTAATCGATGACATGATAAGTTTCTTTTGA	3810 a.u.
CTTCTGTAAATTTGTCCAGTGGGTGGACGCGCCCCG	3650 a.u.
CGGGGTTAAGTTTGCTATGTGGGTGGCTTGCAGCAG	5120 a.u.
TGCGCAACAACTTGCGATGTGGGTGTATGTCTAGAA	5280 a.u.
TTGATCCAAGAGCACTCTGTGACGAATTCTCCTCTA	3940 a.u.
CCTAATGCTACTCATCACAGCAATAAGGACACCTTT	4520 a.u.
CTTCTGTAAATTTGGATGGTGGGTGGACGCGCCCCG	4420 a.u.

Study 2 — technique: protein-binding microarray; form: double-stranded DNA, one strand shown; sample: in vitro; tested at: 2540 nM top; notes: 60-bp whole probe; with: salmon DNA 0.4 mg/ml; baseline: random background probes; direction: higher = stronger binding; shared flanks, not repeated: GCCTAGCAC … GTCTTGATTCGCTTGACGCTGCTG
Target: Interferon regulatory factor 3, full length, phosphomimetic (IRF3, Homo sapiens, UniProt Q14653, residues 1-427, S386D/S396D/S398D/S402D/T404D/S405D)
Residues (chain): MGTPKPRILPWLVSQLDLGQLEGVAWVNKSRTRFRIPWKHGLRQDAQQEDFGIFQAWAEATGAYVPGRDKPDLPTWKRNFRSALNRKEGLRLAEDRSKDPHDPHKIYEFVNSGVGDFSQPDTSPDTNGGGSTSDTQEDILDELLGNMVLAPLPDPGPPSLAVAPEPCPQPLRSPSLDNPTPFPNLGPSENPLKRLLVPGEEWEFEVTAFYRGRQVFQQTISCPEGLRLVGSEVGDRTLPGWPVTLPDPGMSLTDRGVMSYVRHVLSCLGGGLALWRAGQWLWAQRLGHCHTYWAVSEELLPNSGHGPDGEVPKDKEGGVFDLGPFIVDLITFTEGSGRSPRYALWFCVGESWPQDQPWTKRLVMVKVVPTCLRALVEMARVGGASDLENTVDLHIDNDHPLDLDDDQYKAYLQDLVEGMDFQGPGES
Oligonucleotide	fitted relative affinity
TTAGATATCAGTCCCGATTAGTGCTAG	0.454 z-score
TCATTATTAGTGACTCAGACTGTGCTA	0.279 z-score
TTAGGACTGGACACTGGGCTAGTGCTA	-0.664 z-score
TCACCTCTCCCCTCTTGTACTGTGCTA	0.7 z-score
TCAATTTTCCAAATGCCACTGTGCTAG	3.21 z-score
GACGATCTCAGTGTCGAGACGTGCTAG	0.369 z-score
GAAGGTCTCGGACTGGGGACGTGCTAG	-0.659 z-score
TCCATTTTCTAAATGCCCTAGTGCTAG	2.91 z-score

Study 3 — Compound: CCC(=N\O)/C(C)=C/c1ccc(F)cc1; effect on: cell-free assay; technique: competition with immobilised ligand; tested at: 1 µM
target	remaining binding [%]
DSTYK (Homo sapiens, UniProt Q6XUX3)	66
DAPK1 (Homo sapiens, UniProt P53355)	100
EPHA1 (Homo sapiens, UniProt P21709)	82
CDK5 (Homo sapiens, UniProt Q00535)	68
TEC (Homo sapiens, UniProt P42680)	89
PRKACA (Homo sapiens, UniProt P17612)	78
DAPK3 (Homo sapiens, UniProt O43293)	87
BLK (Homo sapiens, UniProt P51451)	87
DCLK2 (Homo sapiens, UniProt Q8N568)	96
DAPK2 (Homo sapiens, UniProt Q9UIK4)	97
FLT4 (Homo sapiens, UniProt P35916)	100
Macrophage colony-stimulating factor 1 receptor, autoinhibited (CSF1R, Homo sapiens, UniProt P07333)	100
PTK6 (Homo sapiens, UniProt Q13882)	100

Other studies, line by line
SMILES	effect on	technique	sample	tested at	notes	measurement	result
C[S+]([O-])c1ccc(-c2nc(-c3ccncc3)c(-c3ccc(F)cc3)[nH]2)cc1 (stereo not drawn)	AlphaScreen signal	AlphaScreen counter screen	His6 peptide without bromodomain	50 µM	assay interference check	inhibition	35.5%

A few entries again (study 3):
target	remaining binding [%]
PRKACA (Homo sapiens, UniProt P17612)	78
DAPK3 (Homo sapiens, UniProt O43293)	87
